Published values of several laboratories.
Compare with care: the assays were run in different laboratories.
Cell line: SK-MEL-5

Compound | assay | conditions | how to read | quantity | result
CNS(=O)(=O)Nc1nccc(Cc2c(C)c3ccc(Oc4ncccc4F)cc3oc2=O)c1F | cell viability | 7 days | – | IC50 | > 1000 nM
CCN(C(=O)c1cc(F)ccc1Oc1nncnc1N1CCC2(C1)CN([C@H](CCCN(C)CCOC)C(C)C)C2)C(C)C | cell growth or viability | 7 days | – | GI50 | > 10000 nM
CCCC(CCC)C(=O)OCc1cn(-c2cc3ccccc3oc2=O)nn1 | NCI60 single-dose screen | 10 µM | – | growth percentage | 92.8%
O=C(Nc1nnc2c1c(-c1ccc(Cl)cc1)nc1sc(=Cc3ccco3)c(=O)n12)c1ccccc1 (mixture of isomers) | SRB | 10 µM, NCI60 single-dose screen | reference: untreated | cell growth | 45.8%
Cn1ncc(-c2ccc3c(=O)[nH]nc(CN)c3c2)c1-c1c(F)c(Cl)cc(OC2CC2)c1C#N | cell viability, inhibitor, CellTiter-Glo | 120 h, baseline-subtracted | – | IC50 | 40 nM
CC(C)c1ccc(N(C)c2ccc3c(c2)OCC[C@H]3CNc2cnccc2C(=O)O)cc1 | cell viability, CellTiter-Glo | 7 days | – | IC50 | 16.8 nM
C1=[N+]2CCCC[N+]3=Cc4ccc5[n]4[Au-]23[n]2c1ccc2-c1nc2ccccc2nc1-5.F[P-](F)(F)(F)(F)F | NCI60 five-dose screen | – | – | TGI | 4.44 -log M
Cc1ccc([N+](=O)[O-])cc1S(=O)(=O)N(C)/N=C/c1cnc2ccc(Br)cn12 | cell growth or viability | – | – | IC50 | > 10000 nM
CN(C)CCN1CCN(c2ccc3nc(-c4ccc5nc(-c6ccc(C(F)(F)F)cc6)[nH]c5c4)[nH]c3c2)CC1 | SRB | 10 µM, 48 h | – | growth percent | 23.6%

Repeated from above:
Compound | assay | conditions | how to read | quantity | result
CC(C)c1ccc(N(C)c2ccc3c(c2)OCC[C@H]3CNc2cnccc2C(=O)O)cc1 | cell viability, CellTiter-Glo | 7 days | – | IC50 | 16.8 nM
